Published values from different studies.
Protocols differ between the studies behind these lines. ± gives the spread as reported. Values after ≈ are worked out from the molar mass of the structure shown.
Sequence of UniProt Q00195 (whole entry, unmodified, looked up): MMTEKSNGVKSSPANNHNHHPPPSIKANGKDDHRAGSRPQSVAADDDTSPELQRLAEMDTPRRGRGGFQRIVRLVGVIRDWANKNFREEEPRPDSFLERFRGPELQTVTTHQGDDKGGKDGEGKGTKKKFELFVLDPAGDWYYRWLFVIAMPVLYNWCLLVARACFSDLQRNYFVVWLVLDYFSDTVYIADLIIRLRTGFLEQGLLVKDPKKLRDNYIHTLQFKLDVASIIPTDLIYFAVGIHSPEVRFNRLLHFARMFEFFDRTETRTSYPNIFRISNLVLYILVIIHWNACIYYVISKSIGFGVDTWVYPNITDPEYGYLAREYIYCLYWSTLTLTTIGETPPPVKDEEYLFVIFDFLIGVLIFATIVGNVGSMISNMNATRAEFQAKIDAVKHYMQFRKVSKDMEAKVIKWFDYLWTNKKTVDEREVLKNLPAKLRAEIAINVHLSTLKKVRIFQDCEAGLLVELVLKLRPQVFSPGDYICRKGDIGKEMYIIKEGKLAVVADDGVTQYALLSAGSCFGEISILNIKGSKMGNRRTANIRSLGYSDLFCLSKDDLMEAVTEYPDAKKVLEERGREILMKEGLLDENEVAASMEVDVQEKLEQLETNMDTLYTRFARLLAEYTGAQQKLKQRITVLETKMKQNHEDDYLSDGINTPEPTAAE
Sequence of UniProt O75469 (whole entry, looked up): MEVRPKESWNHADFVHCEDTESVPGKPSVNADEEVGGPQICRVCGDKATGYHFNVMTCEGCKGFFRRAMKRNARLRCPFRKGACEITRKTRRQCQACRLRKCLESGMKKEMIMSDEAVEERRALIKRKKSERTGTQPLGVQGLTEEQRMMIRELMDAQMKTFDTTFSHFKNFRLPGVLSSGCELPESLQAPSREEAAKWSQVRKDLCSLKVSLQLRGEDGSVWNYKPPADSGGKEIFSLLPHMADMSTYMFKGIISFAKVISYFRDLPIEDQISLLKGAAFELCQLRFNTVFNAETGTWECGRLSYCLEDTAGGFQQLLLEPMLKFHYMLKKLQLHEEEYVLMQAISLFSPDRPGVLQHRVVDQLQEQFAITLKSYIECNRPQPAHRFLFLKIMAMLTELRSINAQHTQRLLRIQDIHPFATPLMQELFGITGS

CC1(C)C2CC[C@@]1(C)C(=O)/C2=C/c1cc2ccccc2o1 — IC50 (GES1; cell growth or viability, SRB; 72 h): 278 µM
C=CCOc1ccc2c(C)c(Br)c(=O)oc2c1C — IC50 (PAM212; cell growth; 4 to 5 days, with: UVA 1.28 J/cm^2): 5 µM
CC(NC1=NS(=O)(=O)c2cc(F)ccc2N1)c1ccccc1 (stereo not shown) — IC50 (MDA-MB-468; cell growth or viability, MTS; 72 h): 4.17 µM
S=C([S][Au-][P+](CCC[P+]([Au-][S]C(=S)n1ncc2ccccc21)(c1ccccc1)c1ccccc1)(c1ccccc1)c1ccccc1)n1ncc2ccccc21 — IC50 (PHA-P stimulated human PBMC; cell growth, MTT; 3 d): 8.16 ± 4.1 µM
CNC(=O)c1cc(Oc2ccc(NC(=O)Nc3ccc(Cl)c(C(F)(F)F)c3)cc2)ccn1 — IC50 (MHCC97H cells, NICD overexpressing; cell viability, MTT; concentration not given, with: pralatrexate 1): 4.68 µM
CCOC(=O)c1c(N)csc1-c1cn(-c2ccccc2)nc1-c1ccc(C)cc1 — MIC (Acinetobacter baumannii; broth microdilution; clinical urinary isolate; compound gamma-irradiated 10 kGy): 0.123 ± 0.1 µg/mL (≈ 0.305 µM)
Nc1nc2c(ncn2[C@@H]2O[C@@H]3COP(=O)(O)O[C@H]3[C@H]2O)c(=O)[nH]1 — relative maximal current (Cyclic nucleotide-gated channel alpha-2 (Cnga2, Rattus norvegicus, UniProt Q00195, C460W/E583M); ion current, agonist, inside-out patch clamp; C460W/E583M channel, +50 mV; reference: cAMP at saturation): 0.84 ± 0.1
Nc1ccn([C@@H]2O[C@H](CO)[C@@H](O)C2(F)F)c(=O)n1 — IC50 (MIA PaCa-2 with ENG siRNA; 48 h, with: ENG siRNA 2 for 24 h): 0.02 µM
COc1cc(C2CC(c3ccc(NC(=O)CN4CCN(c5ccc(Cl)cc5)CC4)cc3)=NN2C(C)=O)cc(OC)c1OC (stereo not shown) — IC50 (HCT-116, PC-3, MCF7, MDA-MB-231 average; MTT): 43 µM
COc1ccc2c(c1)c(CC(=O)O)c(C)n2C(=O)c1ccc(Cl)cc1 — cytokine level (multiplex bead immunoassay, item: IL-7; CD-1 mice, serum; ip, 20 mg/kg, three-injection regimen, with: LPS 3 mg/kg): 11.2 ± 2.7 pg/mL
CCCCc1nc2cc(/C=C/C(=O)NO)ccc2n1CCN(CC)CC — IC50 (primary AML blasts; cell proliferation, CellTiter-Glo; 48 h, lowest FAB-type mean): 0.622 µM
C[C@]1([N+](=O)[O-])C(=O)c2c(F)cccc2O[C@@H]1CC(=O)NC12CC3CC(CC(C3)C1)C2 — IC50 (DU-145; cell growth or viability, SRB; 96 h): 2.27 µM
S=C([S][Au][PH](CCC[PH]([Au][S]C(=S)n1cccn1)(c1ccccc1)c1ccccc1)(c1ccccc1)c1ccccc1)n1cccn1 — IC50 (PHA-P stimulated human PBMC; cell growth, MTT; 3 d): 5.02 ± 1.72 µM
CC(C)[C@H](NC(=O)[C@@H]1CCCN1C(=O)[C@H](CCCNC(=N)N)NC(=O)[C@H](CS)NC(=O)[C@H](Cc1c[nH]c2ccccc12)NC(=O)[C@H](CCCNC(=N)N)NC(=O)[C@@H](Cc1ccccc1)NC(=O)[C@H](Cc1c[nH]cn1)NC(=O)[C@H](CCC(=O)O)NC(=O)[C@H](CS)NC(=O)[C@H](CS)NC(=O)[C@H](CCCCN)NC(=O)[C@@H]1CC(=O)N[C@@H](CCCNC(=N)N)C(=O)N[C@@H](C)C(=O)N[C@@H](CC(=O)O)C(=O)N[C@H](Cc2ccc(O)cc2)C(=O)N1)C(N)=O [technetium-99m labelled] — tissue uptake (C57 mice, liver; intravenous, 0.037 MBq, 4 h): 1.8 ± 0.51 %ID/g
O=S1(=O)N=C(NCc2ccc(OC(F)(F)F)cc2)Nc2ccc(Br)cc21 — IC50 (MDA-MB-468; cytotoxicity, MTS; 72 h): 18 µM
O=C(/C=C/C=C/c1ccc2c(c1)OCO2)N1CCCCC1 — EC50 (Nuclear receptor subfamily 1 group I member 2 (NR1I2, Homo sapiens, UniProt O75469); MDR1 promoter reporter, activator, luciferase reporter; HepG2, no PXR transfection; 24 h, 1% charcoal-stripped FBS): 0.98 µM

A few entries again:
CNC(=O)c1cc(Oc2ccc(NC(=O)Nc3ccc(Cl)c(C(F)(F)F)c3)cc2)ccn1 — IC50 (MHCC97H cells, NICD overexpressing; cell viability, MTT; concentration not given, with: pralatrexate 1): 4.68 µM
CC(C)[C@H](NC(=O)[C@@H]1CCCN1C(=O)[C@H](CCCNC(=N)N)NC(=O)[C@H](CS)NC(=O)[C@H](Cc1c[nH]c2ccccc12)NC(=O)[C@H](CCCNC(=N)N)NC(=O)[C@@H](Cc1ccccc1)NC(=O)[C@H](Cc1c[nH]cn1)NC(=O)[C@H](CCC(=O)O)NC(=O)[C@H](CS)NC(=O)[C@H](CS)NC(=O)[C@H](CCCCN)NC(=O)[C@@H]1CC(=O)N[C@@H](CCCNC(=N)N)C(=O)N[C@@H](C)C(=O)N[C@@H](CC(=O)O)C(=O)N[C@H](Cc2ccc(O)cc2)C(=O)N1)C(N)=O [technetium-99m labelled] — tissue uptake (C57 mice, liver; intravenous, 0.037 MBq, 4 h): 1.8 ± 0.51 %ID/g
